Assay results from different studies.
A part holds a random share of what one study measured. Changes are numbered by the printed parent chain.

Study 1
Target: Ras GTPase-activating protein-binding protein 1, RRM domain (G3BP1, Homo sapiens, UniProt Q13283)
UniProt Q13283, sequence (whole entry, looked up): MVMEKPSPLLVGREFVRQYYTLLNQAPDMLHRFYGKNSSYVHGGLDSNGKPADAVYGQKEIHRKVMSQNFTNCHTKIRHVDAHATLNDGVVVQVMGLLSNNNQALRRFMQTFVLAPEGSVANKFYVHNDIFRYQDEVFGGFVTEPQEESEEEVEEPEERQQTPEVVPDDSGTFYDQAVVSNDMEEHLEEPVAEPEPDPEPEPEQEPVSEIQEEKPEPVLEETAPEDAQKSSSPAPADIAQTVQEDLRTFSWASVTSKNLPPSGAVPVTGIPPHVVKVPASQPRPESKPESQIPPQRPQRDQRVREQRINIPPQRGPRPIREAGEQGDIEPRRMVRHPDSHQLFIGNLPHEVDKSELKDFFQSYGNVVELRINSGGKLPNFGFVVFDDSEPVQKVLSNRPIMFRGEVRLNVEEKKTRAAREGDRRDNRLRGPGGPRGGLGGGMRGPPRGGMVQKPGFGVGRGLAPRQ
Method: RNA Bind-n-Seq
Form: RNA
Medium: in vitro
Tested at: 1 µM
Notes: whole 134-nt RNA, ends assumed
Together with: 150 mM KCl
Baseline: input library
Reading: higher = stronger binding
All sequences stand within: GGGAGUUCUACAGUCCGACGAUC … UGGAAUUCUCGGGUGUCAAGG
Strand	log2 enrichment
ACCAUGCAGGUCGGCAUCUUUGGGAAGUGGGGCAAGGGGGGGAUAGGGAGGGGGGUAACACUUUGGGAACAGGUGGUCCCAGGUCGUUUC	-0.43
UGCCUACGUAAUUUUUUAUCUUGAAAUAUUCAAAAUUAGGAGCCAGAUGACCAAGAUGCUCCAGAUGAACAUGAGUCGCCUCCACCUGAA	-0.588
CAAGUCCUGUGCUACACAUCGUAUGUACCGAAUCGGGAAAGGGGAAAGGGGAAAGGAAAGUAUUAUGUUACGCCGUUCGGAUCUGCACUU	-0.309
AGUCCUGUGCUACACAUCGUAUGUACCGAAUCGGGAGGGUUUUUGGGAAAAAAAGGGAAAGUAUUAUGUUACGCCGUUCGGAUCUGCACU	0.42
CAAGUCCUGUGCUACACAUCGUAUGUACCGAAUCGGCCCCGGCCCCGGCCCCGGGAAAGUAUUAUGUUACGCCGUUCGGAUCUGCACUUC	-1.43
UCCUGUGCUACACAUCGUAUGUACCGAAUCGGGGUUUGGGGUUUUUGGGGUUUUUGGGGAAAGUAUUAUGUUACGCCGUUCGGAUCUGCA	1.58
UGGCCCUGGUGGCAUGCGGGGAGGAAGAGGUGGCCUCAUGGAUCGUGGUGGUCACGGUGGAAUGUUCAGAGGUGGCCGUGGUGGAGACAG	1
AAGUCCUGUGCUACACAUCGUAUGUACCGAAUCGGGGUGGGGUGGGGUUUUUGGGGAAAGUAUUAUGUUACGCCGUUCGGAUCUGCACUU	0.422
UGGCCCUGGUGGCAUGCGGGGAGGAUGAGGUGGCCUCAUGGAUCGUGGUGGUCCCGGUGGAAUGUUCAGAGGUGGCCGUGGUGGAGACAG	0.977

Study 2
Target: PABPC1L2, full length, GST fusion (mouse, UniProt A0ABA7IW68)
Method: RNAcompete
Form: RNA
Medium: in vitro
Tested at: 20 nM
Notes: 7-mer, probes averaged, single round
Baseline: mean of 7-mers
Reading: higher = stronger binding
Residues (chain): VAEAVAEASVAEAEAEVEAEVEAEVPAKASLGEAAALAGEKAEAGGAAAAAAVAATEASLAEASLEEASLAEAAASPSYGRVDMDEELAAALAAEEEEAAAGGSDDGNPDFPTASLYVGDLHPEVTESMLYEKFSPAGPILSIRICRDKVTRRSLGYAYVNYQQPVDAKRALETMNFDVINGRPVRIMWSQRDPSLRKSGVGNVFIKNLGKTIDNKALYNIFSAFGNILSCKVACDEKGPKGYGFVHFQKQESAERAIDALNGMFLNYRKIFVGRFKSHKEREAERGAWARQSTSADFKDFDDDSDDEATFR
Strand	7-mer Z-score
AGCGUGU	-0.208
CAUGGUA	0.0551
UCUGGGA	-0.00833
UUUGCCG	-0.44
GGAAGGC	0.274
UCUGUUU	-0.528
AAGUAGC	0.157
CCUAGCU	-0.373
AGGCGCG	-0.121
AAACCAC	0.436
CAAUUUA	0.468
UUCUAGC	-0.347
GUGAGCU	-0.226
ACCGCUC	-0.255
UUCGGGC	-0.278
UGCGCGA	-0.255
UAUUUCC	-0.369
AUGAAUU	-0.0446
AGGGCCU	-0.0283
GAUGGUA	-0.0754
CGGAAUA	0.218

Study 3
Target: Interferon regulatory factor 5, full length, phosphomimetic (IRF5, Homo sapiens, UniProt Q13568-2, residues 1-514, S451D/S453D/S456D/S462D)
Method: protein-binding microarray
Form: double-stranded DNA, one strand shown
Medium: in vitro
Tested at: 940 nM top
Notes: 60-bp whole probe
Together with: salmon DNA 0.4 mg/ml
Baseline: random background probes
Reading: higher = stronger binding
All sequences stand within: GCCTAGCAC … GTCTTGATTCGCTTGACGCTGCTG
Strand	fitted relative affinity [z-score]
TTACGTTTCCTACTGCTTTAGTGCTAG	1.53
GACGGTTCCGGTTTCGGGACGTGCTAG	5.92
TCACTTTCCAATTGTCCTACTGTGCTA	1.37
TTAGGACTGGGGTTTCGGGTAGTGCTA	2.93
GACGGGCTGCTTTTCCTGACGTGCTAG	-0.496
TTAGGACTGGGGATCGGTTAGTGCTAG	0.149
TTAGGTCTCCAACTGCTTTAGTGCTAG	-0.281
TCAACACTAGTTTTTACACTGTGCTAG	0.107
TTAGGTCTCGGTCTAGGTTAGTGCTAG	4.92
GACGGACTGGACACTGGGGAAGTGCTA	-0.428
TCACCTTTTATATTGTAACTGTGCTAG	1.48
TTAGATATCGGGTATCGTTTAGTGCTA	1.68
TTAGGACTGGGTCTCGGTTCGTGCTAG	0.799
TCATCTCCGGGGTCTGTGACTGTGCTA	-0.111
GACGATTTCGGGTTACGAGACGTGCTA	1.06
TTAGATCTTAGTTTCGATTAGTGCTAG	8.58
TTAGGACAGGGTCTCGGTTAGTGCTAG	0.436
TTCGGACTGGACTTTCGGTTAGTGCTA	2.52
GACGATATCGGGTTTCTAGACGTGCTA	0.265

Study 4
Target: MAFG, bZIP domain (human)
Method: DHFR protein complementation
Medium: yeast
Notes: single substitutions, most at no-binding floor
Baseline: wild-type JUN-FOS pair
Reading: higher = stronger binding
Starting sequence: JUN, bZIP domain (human); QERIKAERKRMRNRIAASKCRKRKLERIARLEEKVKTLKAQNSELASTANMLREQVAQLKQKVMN; partner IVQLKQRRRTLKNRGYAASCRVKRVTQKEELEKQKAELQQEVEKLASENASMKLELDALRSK
Substitution	binding fitness
K34C	-1.41 natural log
A49F	-1.42 natural log
M51R	-1.39 natural log
M51S	-1.22 natural log
K39W	-1.51 natural log
S47R	-1.39 natural log
A49L	-1.2 natural log
L45N	-1.42 natural log
A29R	-1.46 natural log
K34E	-1.19 natural log
R30H	-1.56 natural log
L38K	-1.47 natural log
V35L	-1.3 natural log
A29S	-1.56 natural log
V35P	-1.51 natural log
L45T	-1.45 natural log
R30M	-1.28 natural log
E33W	-1.49 natural log
A57S	-1.48 natural log

Repeated from above (study 2):
Strand	7-mer Z-score
GAUGGUA	-0.0754
ACCGCUC	-0.255
AGCGUGU	-0.208
GGAAGGC	0.274
CAAUUUA	0.468
UUCUAGC	-0.347
AGGCGCG	-0.121
UCUGGGA	-0.00833
AAGUAGC	0.157
